{"data": "Assay results of several laboratories", "note": "Each numbered part is a random draw from the data of one study; scales do not carry over between parts. Changes are numbered by the printed parent chain."}
{"data": "Series 1", "target": "DBP, bZIP domain (human)", "method": "DHFR protein complementation", "sample": "yeast", "notes": "single substitutions, most at no-binding floor", "reference": "wild-type JUN-FOS pair", "reading": "higher = stronger binding", "parent": "JUN, bZIP domain (human); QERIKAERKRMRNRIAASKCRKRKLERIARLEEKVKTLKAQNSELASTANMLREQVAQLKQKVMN; partner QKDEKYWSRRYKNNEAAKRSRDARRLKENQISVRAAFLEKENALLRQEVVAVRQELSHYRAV"}
{"Variant": "K34C", "binding fitness": "-1.29 natural log"}
{"Variant": "T48M", "binding fitness": "-1.46 natural log"}
{"Variant": "Q41E", "binding fitness": "-1.46 natural log"}
{"Variant": "S43R", "binding fitness": "-1.47 natural log"}
{"Variant": "L31F", "binding fitness": "-1.44 natural log"}
{"Variant": "K36A", "binding fitness": "-1.38 natural log"}
{"Variant": "T37N", "binding fitness": "-1.41 natural log"}
{"Variant": "Q41N", "binding fitness": "-1.52 natural log"}
{"Variant": "I28H", "binding fitness": "-1.56 natural log"}
{"data": "Series 2", "target": "CCNE1, cyclin fold, Cln2 fusion (human)", "method": "yeast growth competition, sequencing", "sample": "yeast", "notes": "weak parent motif", "reference": "not given", "reading": "higher = stronger binding", "parent": "DBF4 docking peptide (human); DDIVSKLVFDFVE"}
{"Variant": "V8A", "normalised enrichment score": -0.0856}
{"Variant": "L7A", "normalised enrichment score": 0.0234}
{"Variant": "V12A", "normalised enrichment score": 0.455}
{"Variant": "E13A", "normalised enrichment score": 0.507}
{"Variant": "K6A", "normalised enrichment score": 0.43}
{"Variant": "D1A", "normalised enrichment score": 0.31}
{"data": "Series 3", "target": "ABI1, truncated, D143A, DHFR fusion (Arabidopsis thaliana)", "method": "DHFR PCA, deep sequencing", "sample": "yeast", "notes": "methotrexate growth selection, single substitutions", "together with": "(+)-ABA 710 µM", "reference": "wild-type fitted maximum", "reading": "higher = stronger binding", "parent": "PYL1, truncated, DHFR fusion (Arabidopsis thaliana); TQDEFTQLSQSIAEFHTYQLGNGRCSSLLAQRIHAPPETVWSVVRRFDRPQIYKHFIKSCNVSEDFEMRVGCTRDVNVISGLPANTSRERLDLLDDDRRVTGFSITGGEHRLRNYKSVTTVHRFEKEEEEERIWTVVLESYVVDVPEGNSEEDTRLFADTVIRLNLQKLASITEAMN"}
{"Variant": "A30T", "relative binding score": "103%"}
{"Variant": "F103H", "relative binding score": "68.3%"}
{"Variant": "E130F", "relative binding score": "107%"}
{"Variant": "G23S", "relative binding score": "98.9%"}
{"Variant": "D153R", "relative binding score": "-0.136%"}
{"Variant": "Y18M", "relative binding score": "99.1%"}
{"Variant": "V121N", "relative binding score": "16.7%"}
{"Variant": "C72M", "relative binding score": "99.2%"}
{"Variant": "V136T", "relative binding score": "98%"}
{"data": "Single results of other studies"}
{"Molecule": "PhoQ, residues 284 288 289 292 302 303 AMDMFI", "target": "PhoP, residues 12 14 15 18 19 MHTVL (Escherichia coli, UniProt P23836)", "assay": "Sort-seq, refers to: YFP reporter", "test system": "E. coli", "setting": "PhoQ-PhoP variant library, together with: 10 µM Mg2+", "scale": "reference: high Mg2+ state, higher = stronger signaling", "measurement": "fold induction", "result": 0.942}
